Results pooled from the literature.

CCCCOC(=O)N1CCN(C(=O)[C@H](CP(=O)(O)O)NC(=O)c2cc(N3CC[C@H](OC)C3)nc(-c3ccccc3)n2)CC1  median Tmax (healthy human, plasma; subcutaneous, 4 mg, placebo i.v.): 0.5 h
Cn1c(-c2ccc(C(N)=O)cc2F)nnc1C(C)(C)Oc1c(F)cc(Cl)cc1F  median Tmax (young non-Japanese humans, plasma; oral, 0.7 mg, day 1, single dose): 0.5 h
N#Cc1ccnc(N2C(=O)CC[C@H]2C(=O)N(c2cncc(F)c2)[C@H](C(=O)NC2CC(F)(F)C2)c2ccccc2Cl)c1  median Tmax (human patients; oral, 500 mg once daily, cycle 1 day 14, added: induction chemotherapy): 3.92 h
CN1C(=O)[C@@H](NC(=O)c2nnc(Cc3ccccc3)[nH]2)COc2ccccc21  median Tmax (human, male, whole blood; oral, 40 mg single dose, fasted): 2 h
NCCCS(=O)(=O)O  median Tmax (human, plasma; oral, 100 mg loose-filled capsule, single dose): 1 h
CC[C@@H]1C(=O)N(C)c2cnc(Nc3ccc(C(=O)N[C@H]4CC[C@H](N5CCN(CC6CC6)CC5)CC4)cc3OC)nc2N1C(C)C  median Tmax (human, plasma; intravenous infusion, 250 mg over 2 h, first infusion): 1.03 h
CC(C)[C@H](N)C(=O)NCCCS(=O)(=O)O  median Tmax (human, plasma; oral, 265 mg tablet once daily, day 1, fed, multiple dosing): ~2 h
CC(C)(O)CNc1nc(Nc2ccnc(C(F)(F)F)c2)nc(-c2cccc(C(F)(F)F)n2)n1  median Tmax (human patients; oral, 100 mg once daily, cycle 1 days 1 and 8, added: induction chemotherapy): 4.04 h

Repeated from above:
CN1C(=O)[C@@H](NC(=O)c2nnc(Cc3ccccc3)[nH]2)COc2ccccc21  median Tmax (human, male, whole blood; oral, 40 mg single dose, fasted): 2 h
